Results collected from several papers.
Lines come from different studies, so protocols differ. Positions count from the first letter of the parent shown. ± gives the spread as reported.
hel308: hel308 1-690 (Methanothermobacter thermautotrophicus, UniProt O26901)
Chain of UniProt O26901 (whole entry, looked up): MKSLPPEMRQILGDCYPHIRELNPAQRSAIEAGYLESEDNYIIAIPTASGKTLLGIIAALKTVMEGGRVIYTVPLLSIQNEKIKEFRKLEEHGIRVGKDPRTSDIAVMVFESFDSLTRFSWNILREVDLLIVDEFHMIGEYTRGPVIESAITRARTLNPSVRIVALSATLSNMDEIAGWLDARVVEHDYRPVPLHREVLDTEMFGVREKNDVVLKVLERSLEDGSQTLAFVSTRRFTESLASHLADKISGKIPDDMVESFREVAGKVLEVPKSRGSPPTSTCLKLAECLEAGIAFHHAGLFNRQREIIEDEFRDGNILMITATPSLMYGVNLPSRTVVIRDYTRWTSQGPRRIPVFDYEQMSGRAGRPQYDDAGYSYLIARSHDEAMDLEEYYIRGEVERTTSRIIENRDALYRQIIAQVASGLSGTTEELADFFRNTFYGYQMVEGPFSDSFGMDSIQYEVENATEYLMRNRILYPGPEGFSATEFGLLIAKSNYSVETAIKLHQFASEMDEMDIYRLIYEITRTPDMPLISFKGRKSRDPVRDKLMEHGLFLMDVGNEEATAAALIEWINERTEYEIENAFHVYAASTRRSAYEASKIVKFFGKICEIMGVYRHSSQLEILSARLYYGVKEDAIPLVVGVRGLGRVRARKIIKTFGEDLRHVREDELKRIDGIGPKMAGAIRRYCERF
Putative PAS/PAC sensor protein full length assumed: Putative PAS/PAC sensor protein full length assumed (Nakamurella multipartita, UniProt C8XJT7)
DHX36: DHX36 53-105 (Homo sapiens, UniProt Q9H2U1)
Chain of UniProt Q9H2U1 (whole entry, looked up): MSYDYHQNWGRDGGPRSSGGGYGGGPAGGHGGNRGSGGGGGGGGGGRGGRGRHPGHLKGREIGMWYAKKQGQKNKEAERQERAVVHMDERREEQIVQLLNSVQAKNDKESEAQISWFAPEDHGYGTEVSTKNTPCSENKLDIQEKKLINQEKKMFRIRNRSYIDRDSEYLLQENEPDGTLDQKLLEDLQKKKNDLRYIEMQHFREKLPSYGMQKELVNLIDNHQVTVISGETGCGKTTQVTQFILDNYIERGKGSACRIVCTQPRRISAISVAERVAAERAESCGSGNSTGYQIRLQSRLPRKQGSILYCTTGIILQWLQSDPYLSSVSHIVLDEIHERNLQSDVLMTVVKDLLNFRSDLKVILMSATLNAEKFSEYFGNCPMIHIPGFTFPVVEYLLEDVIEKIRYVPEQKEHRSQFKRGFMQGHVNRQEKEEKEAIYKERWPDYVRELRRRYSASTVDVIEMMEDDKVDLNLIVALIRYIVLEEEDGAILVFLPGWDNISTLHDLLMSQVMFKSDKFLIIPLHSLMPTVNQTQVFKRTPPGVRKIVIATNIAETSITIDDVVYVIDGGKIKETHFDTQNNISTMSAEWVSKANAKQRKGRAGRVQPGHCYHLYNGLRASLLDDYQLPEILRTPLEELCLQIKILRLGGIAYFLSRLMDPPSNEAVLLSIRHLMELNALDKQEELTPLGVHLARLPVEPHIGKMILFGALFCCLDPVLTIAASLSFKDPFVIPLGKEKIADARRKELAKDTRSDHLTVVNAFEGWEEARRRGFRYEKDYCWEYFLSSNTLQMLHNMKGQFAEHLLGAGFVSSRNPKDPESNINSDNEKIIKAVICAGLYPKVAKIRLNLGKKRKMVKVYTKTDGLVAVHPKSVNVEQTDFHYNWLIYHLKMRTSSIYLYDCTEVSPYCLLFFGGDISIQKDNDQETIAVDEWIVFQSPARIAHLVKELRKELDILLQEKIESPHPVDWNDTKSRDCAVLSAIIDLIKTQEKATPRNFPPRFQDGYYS
P1: JPH2 N-terminal region (Mus musculus); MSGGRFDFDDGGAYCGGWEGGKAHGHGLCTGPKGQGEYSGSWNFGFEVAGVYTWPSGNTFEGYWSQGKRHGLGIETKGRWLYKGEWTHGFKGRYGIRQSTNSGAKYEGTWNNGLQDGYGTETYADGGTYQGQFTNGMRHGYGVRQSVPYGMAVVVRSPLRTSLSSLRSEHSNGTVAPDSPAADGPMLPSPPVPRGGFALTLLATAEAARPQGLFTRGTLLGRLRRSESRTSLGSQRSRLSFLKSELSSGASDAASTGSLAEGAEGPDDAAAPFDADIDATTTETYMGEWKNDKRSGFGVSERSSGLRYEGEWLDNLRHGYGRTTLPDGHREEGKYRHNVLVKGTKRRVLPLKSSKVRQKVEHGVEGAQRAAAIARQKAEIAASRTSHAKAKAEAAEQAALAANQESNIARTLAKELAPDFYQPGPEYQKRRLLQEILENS
Chain of UniProt Q8GYY1 (whole entry, looked up): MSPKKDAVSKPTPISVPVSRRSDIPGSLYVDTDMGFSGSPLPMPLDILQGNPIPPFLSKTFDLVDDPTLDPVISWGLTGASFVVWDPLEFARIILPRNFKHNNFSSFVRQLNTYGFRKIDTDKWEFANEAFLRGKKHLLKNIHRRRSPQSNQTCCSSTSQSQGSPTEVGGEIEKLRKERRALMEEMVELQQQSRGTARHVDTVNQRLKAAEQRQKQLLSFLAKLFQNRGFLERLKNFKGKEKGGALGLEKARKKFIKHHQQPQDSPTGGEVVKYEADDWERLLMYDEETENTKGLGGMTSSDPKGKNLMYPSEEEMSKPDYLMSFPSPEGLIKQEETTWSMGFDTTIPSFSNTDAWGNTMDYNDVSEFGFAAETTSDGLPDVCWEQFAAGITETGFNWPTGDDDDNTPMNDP
Chain of UniProt P38996 (whole entry, looked up): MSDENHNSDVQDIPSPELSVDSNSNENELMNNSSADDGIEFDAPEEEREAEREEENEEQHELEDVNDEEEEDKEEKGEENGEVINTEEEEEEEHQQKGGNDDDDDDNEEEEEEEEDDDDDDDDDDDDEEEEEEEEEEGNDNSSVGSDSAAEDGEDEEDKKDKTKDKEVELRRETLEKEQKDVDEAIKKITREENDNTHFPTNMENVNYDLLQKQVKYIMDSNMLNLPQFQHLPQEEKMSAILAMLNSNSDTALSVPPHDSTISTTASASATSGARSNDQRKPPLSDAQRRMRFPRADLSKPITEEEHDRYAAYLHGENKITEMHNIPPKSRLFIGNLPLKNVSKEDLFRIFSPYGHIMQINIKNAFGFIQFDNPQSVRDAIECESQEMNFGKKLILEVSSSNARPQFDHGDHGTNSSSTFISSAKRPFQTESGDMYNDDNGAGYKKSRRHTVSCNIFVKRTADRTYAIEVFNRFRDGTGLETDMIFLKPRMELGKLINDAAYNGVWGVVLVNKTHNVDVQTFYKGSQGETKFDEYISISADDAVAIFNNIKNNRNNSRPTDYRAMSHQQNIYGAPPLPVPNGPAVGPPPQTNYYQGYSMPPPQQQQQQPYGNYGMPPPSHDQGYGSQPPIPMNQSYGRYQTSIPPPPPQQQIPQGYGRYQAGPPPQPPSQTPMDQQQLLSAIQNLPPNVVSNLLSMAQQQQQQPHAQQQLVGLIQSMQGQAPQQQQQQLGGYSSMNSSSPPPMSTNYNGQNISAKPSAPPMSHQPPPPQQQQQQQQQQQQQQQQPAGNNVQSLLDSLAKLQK
Chain of UniProt P22455 (whole entry, looked up): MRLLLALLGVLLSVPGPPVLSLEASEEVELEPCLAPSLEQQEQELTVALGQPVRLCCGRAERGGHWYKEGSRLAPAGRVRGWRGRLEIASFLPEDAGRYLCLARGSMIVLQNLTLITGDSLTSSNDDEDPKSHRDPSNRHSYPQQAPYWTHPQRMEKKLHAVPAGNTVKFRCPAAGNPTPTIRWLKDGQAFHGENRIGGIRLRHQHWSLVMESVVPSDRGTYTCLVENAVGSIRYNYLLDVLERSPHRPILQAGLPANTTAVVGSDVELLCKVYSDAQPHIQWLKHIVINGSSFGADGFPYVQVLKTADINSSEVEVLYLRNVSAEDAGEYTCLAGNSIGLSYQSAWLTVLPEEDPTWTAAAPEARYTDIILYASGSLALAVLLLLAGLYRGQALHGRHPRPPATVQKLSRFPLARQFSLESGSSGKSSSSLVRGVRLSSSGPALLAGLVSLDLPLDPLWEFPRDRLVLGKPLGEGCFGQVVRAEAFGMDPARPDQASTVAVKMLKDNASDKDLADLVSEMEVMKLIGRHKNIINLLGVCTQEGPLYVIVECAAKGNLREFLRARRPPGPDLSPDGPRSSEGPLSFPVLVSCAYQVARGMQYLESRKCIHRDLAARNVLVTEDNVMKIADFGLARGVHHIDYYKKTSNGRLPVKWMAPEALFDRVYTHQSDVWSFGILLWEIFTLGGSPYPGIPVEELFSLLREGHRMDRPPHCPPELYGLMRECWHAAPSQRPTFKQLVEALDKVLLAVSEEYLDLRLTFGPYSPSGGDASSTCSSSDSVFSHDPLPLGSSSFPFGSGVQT
Chain of UniProt P60335 (whole entry, looked up): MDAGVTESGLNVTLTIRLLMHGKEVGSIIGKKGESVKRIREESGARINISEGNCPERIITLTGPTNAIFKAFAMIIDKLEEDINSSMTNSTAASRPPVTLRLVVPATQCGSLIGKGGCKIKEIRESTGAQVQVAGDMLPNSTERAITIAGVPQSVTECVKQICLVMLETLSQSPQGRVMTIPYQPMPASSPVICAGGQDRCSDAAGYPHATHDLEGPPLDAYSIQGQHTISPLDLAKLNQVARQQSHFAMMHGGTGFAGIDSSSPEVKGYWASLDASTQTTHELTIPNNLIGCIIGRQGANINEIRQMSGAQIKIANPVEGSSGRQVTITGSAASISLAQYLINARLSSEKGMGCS
Chain of UniProt P67809 (whole entry, looked up): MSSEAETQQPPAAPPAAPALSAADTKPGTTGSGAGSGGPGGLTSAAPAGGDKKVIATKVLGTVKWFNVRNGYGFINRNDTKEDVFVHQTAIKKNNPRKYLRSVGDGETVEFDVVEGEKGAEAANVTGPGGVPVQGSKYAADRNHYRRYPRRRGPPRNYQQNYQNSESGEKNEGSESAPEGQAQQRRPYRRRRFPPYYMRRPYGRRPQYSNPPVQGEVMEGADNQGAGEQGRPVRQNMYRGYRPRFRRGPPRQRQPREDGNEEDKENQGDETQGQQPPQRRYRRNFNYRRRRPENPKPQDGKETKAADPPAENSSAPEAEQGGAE
Chain of UniProt Q6NS38 (whole entry, looked up): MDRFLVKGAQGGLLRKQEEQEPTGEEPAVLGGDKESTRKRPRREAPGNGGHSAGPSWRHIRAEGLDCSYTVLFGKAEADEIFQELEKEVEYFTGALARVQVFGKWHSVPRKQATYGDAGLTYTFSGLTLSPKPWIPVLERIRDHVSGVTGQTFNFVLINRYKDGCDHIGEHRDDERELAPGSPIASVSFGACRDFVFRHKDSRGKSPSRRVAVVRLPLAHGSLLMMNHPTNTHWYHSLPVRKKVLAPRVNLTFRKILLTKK

DNA 1 CCGGGTAAATGCGCG / DNA 2 CGCGCACTTACCCGG (dsDNA; 2-aminopurine, A:C mismatch) — binding (ALKBH2 56-261 (Homo sapiens, UniProt Q6NS38); 2-aminopurine fluorescence; double-stranded DNA): binds
DNA 1 CAACGTCATAGACGATTACATTGCTACATGGAGCTGTCTAGAGGATCCGA / DNA 2 GTCGGATCCTCTAGACAGCTCCATGATCACTGGCACTGGTAGAATTCGGC / DNA 3 TGCCGAATTCTACCAGTGCCAGTGAT (dsDNA; partial fork, leading strand only) — binding (hel308; EMSA; folded DNA): binds
P1 E85K — Kd (CACNA1C JBM (Mus musculus); ITC): 22 µM
DNA 1 GTCGACCAGCTGAGTCGACCAGCTG / DNA 2 CAGCTGGTCGAC / DNA 3 CAGCTGGTCGAC (dsDNA; nicked, N6-methyl-dA) — binding (YTHDF1 370-559 (Homo sapiens, UniProt Q9BYJ9); pull-down; double-stranded DNA): binds
GGUUUGUUACUGAUAAAGCAGGCAAGACC (ssRNA (Bacillus subtilis); hairpin, two internal loops) — Kd (licT 1-56 A4K (Bacillus subtilis, UniProt P39805); SPR; folded RNA): 6.1 ± 2.4 µM
GGGAGGACGAUGCGGUGAUCCACGGGUUACUGGUAUCGCUCAGUGAGGUUGAAACCAGACGACUCGCUGAGGAUCCGAGA (stem-loop RNA; stem loop) — binding (Putative PAS/PAC sensor protein full length assumed; RiboGreen well assay; folded RNA; added: blue light): binds
ATGAAGAGACAACACGCGTGAA (dsDNA) — binding (AP2/ERF domain-containing protein 1-442 (Vitis vinifera, UniProt A5C831); EMSA; double-stranded DNA, one strand shown): binds
DNA 1 TCACGCGGGATCAATGTGTTCTTTCAGCTCCGGTCACGCTGACCAGGAATACCTCACTACC / DNA 2 GGTAGTGAGGTATTCCCCCGTAAGGGTCCGTAAGGATGGTCAGCGTGACCGGAGCTGAAAGAACACCCGTAAGGGTCCGTAAGGACATTGATCCCGCGTGA (structured DNA; four-way junction, 5-methyl-dC) — binding (ROS1 1-1393 Q607A (Arabidopsis thaliana, UniProt Q9SJQ6); EMSA; folded DNA; 130 nM): binds
GCCCTGAAAGATTATGGAATGGGATTAGGGTAAAGGAAGAGAGCATAATCTTTCAGGGC (hairpin DNA; hairpin, 16 bp stem, 27 nt loop) — Kd (topA full length assumed (Escherichia coli, UniProt P06612); fluorescence anisotropy; folded DNA; added: EDTA): 0.0005 ± 2e-05 µM
CCGGTTAGTCAATGATCTGTCACGTGTAAGGATTTAGCTGATATGA (dsDNA) — binding (COL domain class transcription factor (Malus domestica, UniProt D9ZIW3); EMSA; double-stranded DNA, one strand shown): binds
CTTCCTCCAGATGAGCTCATGGGTTTCTCCACCAAGGAAGTTTTCCGCTGGTTG (dsDNA) — binding (NFATC4 400-744 (Homo sapiens, UniProt Q14934); EMSA; double-stranded DNA, one strand shown): binds
GGGUUGCGGAGGGUGGGCCUGGGAGGGGU (G-quadruplex RNA (Homo sapiens); G4) — binding (DHX36; EMSA; folded RNA): binds
ATCGATAGTCTCTAGACAGCATGTCCTAGCAAGCCAGAATTCGGCAGCGT (dsDNA) — binding (hel308; EMSA; double-stranded DNA, one strand shown): no binding
AGGGCGGTGTGGGAAGAGGGA (G-quadruplex DNA (Homo sapiens)) — binding (MAZ (Homo sapiens, UniProt P56270); EMSA; folded DNA): binds
UUUUCUUUUUUCUUAUUCUUAUU (ssRNA) — Kd (NAB3 321-415 (Saccharomyces cerevisiae, UniProt P38996); fluorescence anisotropy; RNA): 48 ± 2 µM
AGGGUGGGCCUGGGAGGGGUGGUGGCCAUUUUUU (G-quadruplex RNA (Homo sapiens); G4) — binding (DHX36; EMSA; folded RNA): binds
CCUUGAAGCAGACGACC (structured RNA) — binding (Putative PAS/PAC sensor protein full length assumed; 32P well-retention assay; folded RNA; added: blue light): no binding
GGAUUGUUACUGAUAAAGCAGGCAAAACC (ssRNA; hairpin, two internal loops) — Kd (licT 1-56 N9H (Bacillus subtilis, UniProt P39805); SPR; folded RNA): 0.19 ± 0.08 µM
GTATACCTGCAGCTGAGGCGAGCCGTTGGTGTGGATGGCAGGGGCAGGATTCGACTCTAGAGCGCA (ssDNA; stem-loop) — binding (FGFR4 22-369 (Homo sapiens, UniProt P22455); EMSA; single-stranded DNA; added: Mg2+ 5 mM): no binding
P1 S165Y — relative binding (CACNA1C JBM (Mus musculus); Strep pull-down; 3 µM, read off a plot; relative to: unchanged protein, higher = more binding): 64%
GGGAGGACGAUGCGGUAGGGUCCUGCCUGUUGCGAUCCUGGGCAUGGUUUAAGCAGACGACUCGCUGAGGAUCCGAGA (stem-loop RNA; stem loop) — binding (Putative PAS/PAC sensor protein full length assumed; 32P well-retention assay; folded RNA; added: blue light): binds
GCCCTGAAAGATTATGGAATGCGATTAGGGTAAAGGAAGAGAGCATAATCTTTCAGGGC (hairpin DNA; hairpin, 16 bp stem, 27 nt loop) — Kd (topA full length assumed R169A (Escherichia coli, UniProt P06612); fluorescence anisotropy; folded DNA; added: EDTA): 0.00086 ± 0.00015 µM
GGGUUGCGGAGGGUGGG (G-quadruplex RNA (Homo sapiens); G4) — binding (DHX36; EMSA; folded RNA): binds
GGUUGAACCAGACGACC (structured RNA) — binding (Putative PAS/PAC sensor protein full length assumed; 32P well-retention assay; folded RNA; added: blue light): no binding
AAUUGCUACCCAAUGCCUGGCCCAAGGGCAUUCCCAAAGCUUA (ssRNA) — binding (Pcbp1 97-162 (Mus musculus, UniProt P60335); EMSA; RNA): binds
DNA 1 CAACGTCATAGACGATTACATTGCTACATGGAGCTGTCTAGAGGATCCGA / DNA 2 GTCGGATCCTCTAGACAGCTCCATGATCACTGGCACTGGTAGAATTCGGC / DNA 3 TGCCGAATTCTACCAGTGCCAGTGATGGACATCTTTGCCCACGTTGACCC / DNA 4 TGGGTCAACGTGGGCAAAGATGTCCTAGCAATGTAATCGTCTATGACGTT (dsDNA; four-way junction, fully paired) — binding (hel308; EMSA; folded DNA): binds
AACUUGAAGCAGACGAGUG (structured RNA) — binding (Putative PAS/PAC sensor protein full length assumed; 32P well-retention assay; folded RNA; added: blue light): binds
GTAGGAGGCGCGGCTGCCACGAGACGAGGTACGTGGCCCCCATGCAGCAC (dsDNA) — binding (BZIP23 1-357 (Oryza sativa, UniProt Q6Z312); EMSA; double-stranded DNA, one strand shown): binds
TTAAAATTCATGAACTATA (dsDNA) — binding (HSFA3 full length assumed (Arabidopsis thaliana, UniProt Q8GYY1); EMSA; double-stranded DNA, one strand shown): no binding
AACAGCT (ssDNA) — binding (YBX1 51-140 (Homo sapiens, UniProt P67809); ITC; single-stranded DNA): binds
GGUUGAAGCACACGACC (structured RNA) — binding (Putative PAS/PAC sensor protein full length assumed; 32P well-retention assay; folded RNA; added: blue light): no binding

Repeated from above:
AGGGCGGTGTGGGAAGAGGGA (G-quadruplex DNA (Homo sapiens)) — binding (MAZ (Homo sapiens, UniProt P56270); EMSA; folded DNA): binds
ATGAAGAGACAACACGCGTGAA (dsDNA) — binding (AP2/ERF domain-containing protein 1-442 (Vitis vinifera, UniProt A5C831); EMSA; double-stranded DNA, one strand shown): binds
DNA 1 CAACGTCATAGACGATTACATTGCTACATGGAGCTGTCTAGAGGATCCGA / DNA 2 GTCGGATCCTCTAGACAGCTCCATGATCACTGGCACTGGTAGAATTCGGC / DNA 3 TGCCGAATTCTACCAGTGCCAGTGAT (dsDNA; partial fork, leading strand only) — binding (hel308; EMSA; folded DNA): binds
GGAUUGUUACUGAUAAAGCAGGCAAAACC (ssRNA; hairpin, two internal loops) — Kd (licT 1-56 N9H (Bacillus subtilis, UniProt P39805); SPR; folded RNA): 0.19 ± 0.08 µM
